Published values of several laboratories.
Protocols differ between the studies behind these lines. Several values in a cell are separate wells, animals, samples, runs or records.
Target: RAC-gamma serine/threonine-protein kinase (AKT3, Homo sapiens, UniProt Q9Y243)

For `COCC12C(=O)NC3C4(C(OC)CC1O)C1CC5(O)C(OC)C(O)C(OC(C)=O)(C1C5OC(=O)c1ccccc1)C3(O)C(OC)C24` (centres unmarked), the remaining activity was 112% and 90% (kinase activity, inhibitor, ProQinase kinase profiling; 25 µM; baseline: control).
`C=CC(=O)N1CCc2ccc(-n3c(=O)ccc4cnc5ccc(-c6cnn(C)c6)cc5c43)cc21` gave a remaining binding of 90% (KINOMEscan; 1 µM; baseline: DMSO control).
`COc1c(OCCCN2CCOCC2)ccc2c1N=C(NC(=O)c1cnc(N)nc1)N1CCN=C21` has a remaining activity of 89% (kinase activity, inhibitor; 1 µM; baseline: untreated control).
For `CC(C)=CC1OC(C)(C)C2C=C3C(=O)C(Cl)=CC(O)C3C3C(O)C4OC4C(=O)C132` (centres unmarked), the remaining binding was 92% (cell-free assay, competition with immobilised ligand; 10 µM).
For `CNC(=O)C[C@H](Cc1ccc(C#N)cc1)NC(=O)c1cc(-c2ccc(CN[C@H](C)c3ccc(C)cc3)o2)ccc1Cl`, “activity vs control” read 95% (enzyme activity, inhibitor; 1 µM).
The remaining activity of `Nc1ncc(-c2cc(-c3cnn(CC(F)(F)F)c3)ncc2F)nc1C(=O)NC1CNCC(F)C1` (centres unmarked) is reported as 100% (enzyme activity; 1 µM; baseline: DMSO control).
`O=c1c(-c2ccc(Cl)c(CN3CCOCC3)c2)coc2cc(O)ccc12` gave a remaining activity of 111% (enzyme activity, inhibitor; 1 µM).
`C=CC(=O)Nc1cccc(-c2cnc3[nH]cc(C(=O)NC(C)(C)C)c3n2)c1` gave an inhibition of -1% (enzyme activity, inhibitor; 0.1 µM).
For `Cc1cccc(O[C@H]2CCC[C@@H](C(C)CNCc3ccncc3)C2)c1` (relative stereo), the inhibition was -8% (enzyme activity, inhibitor; 10 µM).
`Nc1ncc2c(n1)-c1c([nH]c3ccc(C4=CCOCC4)cc13)CCC2` gave a remaining binding of 54% (binding, competition with immobilised ligand; 1 µM).
`NC(=O)C[C@H]1CCc2sc3ncnc(O[C@H]4CC[C@H](N5CCOCC5)CC4)c3c21` has an inhibition of -2% (enzyme activity, inhibitor; 10 µM).
For `O=C=[N][Ru-4]123([n]4c5ccc(O)cc5c5c6c(c7cc(F)c[n+]1c7c54)C(=O)NC6=O)[S+]1CC[S+]2CC[S+]3CC1` (centres unmarked), the remaining activity was 49% (enzyme activity; 100 nM, human enzyme, added: 10 µM ATP; baseline: untreated).
The inhibition of `C=CC(=O)N1Cc2nc(-c3cc(-c4cc(Cl)cnc4Cl)c(F)cc3F)n(-c3ccncn3)c2C1` is reported as 8.3% (cell-free assay, inhibitor; 1 µM).
With `Cc1cnc2nc1Nc1cccc(c1)COC/C=C/COCc1cc(ccc1OCCN1CCOCC1)N2` the remaining binding was 100% (binding; 0.1 µM).

Some of these lines once more:
`COc1c(OCCCN2CCOCC2)ccc2c1N=C(NC(=O)c1cnc(N)nc1)N1CCN=C21` has a remaining activity of 89% (kinase activity, inhibitor; 1 µM; baseline: untreated control).
`C=CC(=O)Nc1cccc(-c2cnc3[nH]cc(C(=O)NC(C)(C)C)c3n2)c1` gave an inhibition of -1% (enzyme activity, inhibitor; 0.1 µM).
